{"data": "Measured values of several laboratories", "note": "Each line is one published result; not all experiments were run side by side.", "UniProt P48047, sequence (whole entry, looked up)": "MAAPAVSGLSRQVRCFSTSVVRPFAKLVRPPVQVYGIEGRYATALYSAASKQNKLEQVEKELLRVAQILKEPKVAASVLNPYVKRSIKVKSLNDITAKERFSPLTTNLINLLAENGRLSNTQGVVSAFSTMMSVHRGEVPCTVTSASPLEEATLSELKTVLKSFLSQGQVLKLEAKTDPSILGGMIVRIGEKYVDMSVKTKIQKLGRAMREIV"}
{"SMILES": "Cc1c(C(=O)NC2CCC(C(F)(F)F)CC2)c(COc2cccc(OC(F)(F)F)c2)nn1CC(F)(F)F (stereo not shown)", "target or system": "Schistosoma mansoni", "test": "microscopic viability scoring", "test system": "newly transformed schistosomula", "setting": "10 µM, 72 h, prescreen", "measurement": "viability reduction", "result": "0%"}
{"SMILES": "CS(=O)(=O)CCCn1c(Cn2c(=O)n(CC(F)(F)F)c3ccncc32)cc2cc(Cl)ccc21", "target or system": "respiratory syncytial virus", "test": "RT-qPCR", "test system": "hospitalized infants 1-24 months, nasal swab", "setting": "oral, 9, 6 or 5 mg/kg daily, day 6, high dose by age cohort", "scale": "baseline: placebo", "measurement": "LS mean difference vs placebo", "result": "1.26 log10 copies/mL"}
{"SMILES": "COC(=O)N[C@H](C(=O)N1CCC[C@H]1c1ncc(-c2ccc(-c3ccc(-c4cnc([C@@H]5CCCN5C(=O)[C@@H](NC(=O)OC)C(C)C)[nH]4)cc3)cc2)[nH]1)C(C)C", "target or system": "Hepatitis C virus", "test system": "replicon cells", "setting": "50% effect level, with: NS5B inhibitor, ratio 1:1", "measurement": "combination index", "result": 0.67}
{"SMILES": "Nc1ncnc2c1ncn2[C@@H]1O[C@@H]2COP(=O)(O)O[C@H]3[C@@H](O)[C@H](n4cnc5c(=O)[nH]cnc54)O[C@@H]3COP(=O)(O)O[C@H]2[C@H]1O", "target or system": "Zika virus", "test": "upregulated Reactome pathway, RNA sequencing, refers to: Programmed Cell Death (R-HSA-5357801)", "test system": "HFF-1", "scale": "baseline: ZIKV-infected untreated", "measurement": "fold enrichment", "result": 3.27}
{"SMILES": "CCOC(=O)CCCn1c(SCCOc2c(C)cccc2C)nc2ccccc21", "target or system": "Schistosoma mansoni", "test": "microscopic viability scoring", "test system": "newly transformed schistosomula", "setting": "10 µM, 72 h, prescreen", "measurement": "viability reduction", "result": "16.7%"}
{"SMILES": "CC[C@H](C)[C@H](NC(=O)[C@H](C)NC(=O)[C@H](CCCCN)NC(=O)[C@H](CC(C)C)NC(=O)[C@H](C)NC(=O)[C@@H](NC(=O)[C@H](Cc1c[nH]cn1)NC(=O)[C@H](CC(C)C)NC(=O)[C@@H](NC(=O)[C@@H](NC(=O)[C@H](CCCCN)NC(=O)[C@H](C)NC(=O)[C@H](C)NC(=O)[C@H](CO)NC(=O)[C@H](CCCCN)NC(=O)[C@H](Cc1ccccc1)NC(=O)[C@@H](NC(=O)[C@H](CCCCN)NC(=O)[C@H](CC(C)C)NC(=O)[C@H](Cc1ccccc1)NC(=O)[C@H](CO)NC(=O)[C@H](CCCCN)NC(=O)[C@H](Cc1c[nH]c2ccccc12)NC(=O)[C@H](CCCCN)NC(C)=O)[C@@H](C)O)[C@@H](C)O)C(C)C)[C@@H](C)O)C(=O)N[C@@H](CO)C(=O)N[C@@H](CO)C(N)=O", "target or system": "Acinetobacter baumannii", "test system": "ATCC 19606", "measurement": "MIC90", "result": "2 µg/mL"}
{"SMILES": "CC[C@H](C)[C@H](NC(=O)[C@H](Cc1ccccc1)NC(=O)[C@H](CCC(=O)O)NC(=O)[C@H](CCCNC(=N)N)NC(=O)[C@H](C)NC(=O)[C@H](C)NC(=O)[C@H](CCC(N)=O)NC(=O)[C@H](CCC(=O)O)NC(=O)[C@H](CCC(=O)O)NC(=O)[C@H](CC(C)C)NC(=O)[C@H](Cc1ccc(O)cc1)NC(=O)[C@H](CO)NC(=O)[C@H](CO)NC(=O)[C@@H](NC(=O)[C@H](CC(=O)O)NC(=O)[C@H](CO)NC(=O)[C@@H](NC(=O)[C@H](Cc1ccccc1)NC(=O)[C@@H](NC(=O)CNC(=O)[C@H](CCC(=O)O)NC(=O)[C@H](C)NC(=O)CCc1c[nH]cn1)[C@@H](C)O)[C@@H](C)O)C(C)C)C(=O)N[C@@H](C)C(=O)N[C@@H](Cc1c[nH]c2ccccc12)C(=O)N[C@@H](CC(C)C)C(=O)N[C@H](C(=O)N[C@@H](CCCNC(=N)N)C(=O)NCC(=O)N[C@@H](CCCNC(=N)N)C(=O)N[C@@H](CCCCNC(=O)COCCOCCNC(=O)COCCOCCNC(=O)CC[C@H](NC(=O)CCCCCCCCCCCCCCCCC(=O)O)C(=O)O)C(=O)NCC(=O)NCC(=O)N[C@@H](CO)C(=O)N[C@@H](CCCCNc1c(NCCCCCN(O)C(=O)CCC(=O)NCCCCCN(O)C(=O)CCC(=O)NCCCCCN(O)C(C)=O)c(=O)c1=O)C(=O)O)C(C)C [zirconium-89 labelled]", "test system": "rat, duodenum", "setting": "sc, 3 nmol/kg, 168 h, ex vivo", "measurement": "tissue uptake", "result": "0.11 %ID/g"}
{"SMILES": "C[C@@H](O)[C@@H](CO)NC(=O)[C@@H](CCCNC(=N)N)NC(=O)[C@@H]1CCCN1C(=O)[C@@H]1CSSC[C@H](NC(=O)[C@H](Cc2ccccc2)NC(=O)CN2CCN(CC(=O)O)CCN(CC(=O)O)CCN(CC(=O)O)CC2)C(=O)N[C@@H](Cc2ccc(O)cc2)C(=O)N[C@@H](Cc2ccccc2)C(=O)N[C@@H](CCC(N)=O)C(=O)N[C@@H](CC(N)=O)C(=O)N1 [gallium-68 labelled]", "test system": "Wistar rat, healthy, sublingual gland", "setting": "intravenous, 8 MBq, 30 min", "measurement": "tissue uptake", "result": "0.56 %ID/g"}
{"SMILES": "C[C@@H]1C[C@@]2(N=CCS2)[C@]2(O)O[C@@H]3C[C@@]4(C=O)[C@@H](CC[C@@H]5[C@@H]4CC[C@]4(C)[C@@H](C6=CC(=O)OC6)CC[C@]54O)C[C@H]3O[C@@H]2O1", "target or system": "Schistosoma mansoni", "test": "microscopic viability score", "test system": "adult worms", "setting": "10 µM, 72 h", "measurement": "viability effect", "result": "100%"}
{"SMILES": "Cc1c2c(nn1C)CSCc1cc(n(C)n1)CSc1cc(c3ccccc3c1)OCCCc1c(C(=O)O)n(C)c3c-2c(Cl)ccc13", "target or system": "Staphylococcus aureus", "test": "label-free quantitative proteomics, refers to: SAOUHSC_01450 protein", "test system": "SA113", "setting": "concentration not given", "scale": "baseline: untreated control", "measurement": "log2 fold change", "result": -5.3}
{"SMILES": "C[C@@H](O[C@H]1OCCN(Cc2n[nH]c(=O)[nH]2)[C@H]1c1ccc(F)cc1)c1cc(C(F)(F)F)cc(C(F)(F)F)c1", "target or system": "Human immunodeficiency virus 1", "test": "viral replication", "test system": "PBMC, CRF01_AE isolate from Indonesia, R5, NSI", "measurement": "IC50", "result": "7.13 µM"}
{"SMILES": "CC[C@H](C)[C@@H]1NC(=O)[C@@H]2CCCN2C(=O)[C@H](CC(C)C)NC(=O)[C@H](CC(C)C)NC(=O)CNC(=O)[C@@H](NC(=O)[C@@H](NC(=O)[C@H](CC(=O)O)NC(=O)CNC(=O)[C@@H](NC(=O)[C@H](C)NC(=O)CNC(=O)[C@H](CCCCN)NC(=O)[C@H](CC(C)C)NC(=O)[C@H](CC(C)C)NC(=O)[C@H](CCCCN)NC(=O)CNC(=O)[C@@H](NC(=O)[C@@H](N)CC(C)C)C(C)C)C(C)C)C(C)C)CSSC[C@@H](C(=O)O)NC1=O", "test": "RNA-seq, refers to: Trim15", "test system": "mouse, traumatic brain injury model, frontal cortex and hippocampus", "setting": "dose not given", "scale": "baseline: TBI alone", "measurement": "log2 fold change", "result": -1.61}
{"SMILES": "C[C@H]1CN(c2n[nH]c3nc(N[C@H]4CC[C@H](NS(=O)(=O)CCC(F)(F)F)CC4)ncc23)CCO1", "target or system": "ATP synthase peripheral stalk subunit OSCP, mitochondrial (Homo sapiens, UniProt P48047)", "test": "Kinobeads competition, refers to: ATP5O", "setting": "0.8 µM, unit not given", "scale": "baseline: vehicle", "measurement": "remaining binding", "result": 1.41}
